Measurements gathered from unrelated publications.
Parts stem from different laboratories: compare values within a part only. Substitutions count along the parent as printed.

Block 1 — target: CCND1, cyclin fold, Cln2 fusion (human); technique: yeast growth competition, sequencing; sample: yeast; setting: strong parent motif; baseline: not given; reading: higher = stronger binding; endpoint: normalised enrichment score
Starting sequence: CDKN1A docking peptide (human); SKACRRLFGPVDS; partner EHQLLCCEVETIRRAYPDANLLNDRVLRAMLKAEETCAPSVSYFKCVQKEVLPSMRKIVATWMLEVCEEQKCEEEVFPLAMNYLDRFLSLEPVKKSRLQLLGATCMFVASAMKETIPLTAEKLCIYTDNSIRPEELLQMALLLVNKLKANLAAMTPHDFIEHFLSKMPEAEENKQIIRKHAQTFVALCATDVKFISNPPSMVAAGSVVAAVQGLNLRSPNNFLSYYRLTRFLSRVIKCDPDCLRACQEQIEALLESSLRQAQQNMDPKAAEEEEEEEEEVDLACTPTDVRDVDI
R5G: 0.252
L7I: 0.583
A3Q: 0.213
R6C: 3.3
V11L: 2.5
A3Y: 0.13
G9H: 2.35
P10R: 1.29
A3N: -0.243
F8S: 0.419
C4W: 0.883
L7F: 0.0581
V11K: 2.18
R5C: 0.645
R5I: 0.725
F8N: 0.0688
R5K F8L: 0.137

Block 2 — technique: protein binding microarray; molecule type: double-stranded DNA, one strand shown; sample: in vitro; tested at: not given; baseline: not given; reading: higher = stronger binding; endpoint: E-score
Target: Histone acetyltransferase KAT6A, winged helix 1, GST fusion (KAT6A, Homo sapiens, UniProt Q92794, residues 1-85)
Setting: 8-mer, flanks averaged, mean of 2 arrays, mostly near background
Construct (chain): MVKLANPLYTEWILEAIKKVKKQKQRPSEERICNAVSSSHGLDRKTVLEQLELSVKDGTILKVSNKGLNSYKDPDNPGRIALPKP
TCGGCACA: 0.138
ACTCGTTA: -0.0789
CGAGTGTC: -0.0217
ACGGATAG: 0.169
GCCAAAGA: -0.139
CCGGACAC: 0.215
TATAATCA: -0.102
GCACTCGC: 0.207
AACGTTGT: -0.0226
TGCGGACA: 0.213
CGCCCTAC: 0.196
CATCAAAC: -0.189
ATACCTTA: -0.258
CATATCGC: 0.163
GGGTACCC: 0.161
ACTTATAA: -0.209
CTTGCTAA: -0.203
ACGGACAT: 0.258
TCCGCGAA: 0.218

Block 3 — technique: RNA Bind-n-Seq; molecule type: RNA; sample: in vitro; tested at: 1 µM; setting: whole 134-nt RNA, ends assumed; added: 150 mM KCl; baseline: input library; reading: higher = stronger binding; endpoint: log2 enrichment
Target: Ras GTPase-activating protein-binding protein 1, C-terminal RGG region (G3BP1, Homo sapiens, UniProt Q13283)
Chain of UniProt Q13283 (whole entry, looked up): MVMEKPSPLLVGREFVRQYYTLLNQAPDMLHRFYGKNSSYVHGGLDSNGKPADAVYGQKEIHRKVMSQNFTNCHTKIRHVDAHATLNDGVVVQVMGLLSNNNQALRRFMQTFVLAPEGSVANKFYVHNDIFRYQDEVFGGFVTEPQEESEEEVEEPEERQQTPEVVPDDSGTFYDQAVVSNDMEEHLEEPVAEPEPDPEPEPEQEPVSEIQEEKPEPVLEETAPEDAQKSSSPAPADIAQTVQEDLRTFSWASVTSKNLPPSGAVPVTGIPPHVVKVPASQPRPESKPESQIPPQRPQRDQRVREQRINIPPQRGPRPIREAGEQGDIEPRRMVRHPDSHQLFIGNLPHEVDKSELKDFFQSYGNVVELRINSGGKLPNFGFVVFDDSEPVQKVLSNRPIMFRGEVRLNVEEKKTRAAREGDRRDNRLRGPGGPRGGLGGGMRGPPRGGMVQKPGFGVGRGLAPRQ
Shared flanks, not repeated: GGGAGUUCUACAGUCCGACGAUC … UGGAAUUCUCGGGUGUCAAGG
UGGCCCUGGUGGCAUGCGGGGAGGAAGAGGUGGCCUCCUGGAUCGUGGUGGUCCCGGUGGAAUGUUCAGAGGUGGCCGUGGUGGAGACAG: 2.14
ACCAUGCAGGUGGGCAUCUUUGGGAAGUGCGGCAAGGGGGGGAUAGGGAGGGGGGUAACACUUUGGGAACAGGUGGUCCCAGGUCGUUUC: -0.923
ACCAUGGAGGUGGGCAUCUUUGGGAAGUGGGGCAAGGGGGGGAUAGGGAGGGGGGUAACACUUUGGGAACAGGUGGUCCCAGGUCGUUUC: -1
GUCCUGUGCUACACAUCGUAUGUACCGAAUCGGGGCCCCCGGCCCCCGGGCCCCCGGGGAAAGUAUUAUGUUACGCCGUUCGGAUCUGCA: -1.81
UGGGAGGUGGAUUUUGUUUAUUUUUUUAGCUCAUUUCCAGGGGUGGGAAUUUUUUUUUAAUAUGUGUAAUGAAUAAAGUUGUUUUUGAAA: 3.68
CCUGUGCUACACAUCGUAUGUACCGAAUCGGGCCCCCCCGGCCCCCCCGGCCCCCCCGGGAAAGUAUUAUGUUACGCCGUUCGGAUCUGC: -1.97
UGGGAGGUGGAUUUUGUUUAUUUUUAUAGCUCAUUUCCAGGGGUGGGAAUUUUUUUUUAAUAUGUGUCAUGAAUAAAGUUGUUUUUGAAA: 3.54
GUCCUGUGCUACACAUCGUAUGUACCGAAUCGGGAAAAAAGGGAAAAAAGGAAAAAAGGAAAGUAUUAUGUUACGCCGUUCGGAUCUGCA: -1.58
AGUCCUGUGCUACACAUCGUAUGUACCGAAUCGGGAAAAAAAGGGAAAAAGGGUGGGAAAGUAUUAUGUUACGCCGUUCGGAUCUGCACU: 0.957
UCCUGUGCUACACAUCGUAUGUACCGAAUCGGGAAAAAGGGGAAAAAGGGAAAAAGGGGAAAGUAUUAUGUUACGCCGUUCGGAUCUGCA: -0.479
CAAGUCCUGUGCUACACAUCGUAUGUACCGAAUCGGGGAAAGGGAAAGGGAAAGGGAAAGUAUUAUGUUACGCCGUUCGGAUCUGCACUU: 1.39
CACAGACAACACGCACCCACACAGUCACAGAGGGAAGGGGUUGGGAUGGGGACAGGGUGCACAGCAGGGCGGGGUAGGACCCCAGCCCCU: -0.518
UCAAGUCCUGUGCUACACAUCGUAUGUACCGAAUCGGGGUUGGGGUUGGUUGGGGAAAGUAUUAUGUUACGCCGUUCGGAUCUGCACUUC: 0.386
UGGCCCUGGUGGCAUGCGGGGAGGAAGAGGCGGCCUCAUGGAUCGUGGUGGUCCCGGUGGAAUGUUCAGAGGUGGCCGUGGUGGAGACAG: 2.19

Block 4 — technique: competition protein-binding microarray; molecule type: double-stranded DNA, one strand shown; sample: in vitro; tested at: 2 µM; added: Cbf1 competitor, 0.05 µM; reading: higher = stronger binding; endpoint: fluorescence intensity; shared flanks, not repeated: … GTCTTGATTCGCTTGACGCTGCTG
Target: Phosphate system positive regulatory protein PHO4, full length, GST-tagged (PHO4, Saccharomyces cerevisiae, UniProt P07270, residues 1-312)
Setting: whole 60-bp probe, lowest competitor level
Residues (chain): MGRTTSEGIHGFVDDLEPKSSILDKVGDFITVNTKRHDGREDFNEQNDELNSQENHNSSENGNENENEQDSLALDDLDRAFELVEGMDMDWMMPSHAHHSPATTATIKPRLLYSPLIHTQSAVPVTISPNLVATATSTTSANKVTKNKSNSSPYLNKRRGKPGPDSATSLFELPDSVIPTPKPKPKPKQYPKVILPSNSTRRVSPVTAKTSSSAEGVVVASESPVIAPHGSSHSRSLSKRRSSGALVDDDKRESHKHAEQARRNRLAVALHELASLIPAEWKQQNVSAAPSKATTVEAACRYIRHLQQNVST
ACACAGATTGGCCATCACGCACCCATAATCATTTCT: 7290 a.u.
CTTCCAACAAACCATCACGCTGTCGTATCTCAATTG: 6630 a.u.
GTAGAGGTTAACGGTTCCGTGATGGAACCCATTTCT: 2960 a.u.
GGGAGACAGCGCGGCCACGTGACGGGCTTCCTCTTT: 13500 a.u.
CGGGGTTAAGTTTGGGTTGTGGGTGGCTTGCAGCAG: 5460 a.u.
CTTCTGTAAATTTTTCACGTGCCGTGAAGCGCCCCG: 12200 a.u.
GAGGGCACTTTCTGGCACATGCGGCCGCAACAAGGA: 10100 a.u.
GGCCACGGCACAAATATGATGTAGTACTAAGATTTT: 4420 a.u.
CTTTCCCGATCTTGTCACTTCACTTTAGCACATTTG: 4040 a.u.

Block 5 — technique: RNA Bind-n-Seq; molecule type: RNA; sample: in vitro; tested at: 365 nM; baseline: no-protein control; reading: higher = stronger binding; endpoint: RBNS enrichment (R)
Target: RNA binding protein fox-1 homolog 2, RRM domain, GST-SBP tag (RBFOX2, Homo sapiens, UniProt O43251-10, residues 100-194)
Setting: natural RNA segment, single round, ends assumed
Shared flanks, not repeated: GGGAGUUCUACAGUCCGACGAUC … UGGAAUUCUCGGGUGCCAA
Target sequence (chain): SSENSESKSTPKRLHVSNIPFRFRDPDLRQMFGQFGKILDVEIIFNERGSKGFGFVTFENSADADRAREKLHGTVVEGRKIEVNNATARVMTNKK
CAGAGUCAGAACUGUACACAUCCCAAAAUUUGGUGGCCGUGGAACACAUUCCCGGUGAUAGAAUUGCUAAAUUGUCGUGAAAUAGGUUAGAAUUUUUCUUUAAAUUAUGG: 0.67
CUGCCCUCCUUAGACCUGAGGGACCCUUCGAGAUCAUCACUUCCUUGCCCCCAUUUCACCCAUGGGGAGACAGUUGAGAGCGGGGAUGUGACAUGCCCAAGGCCACGGAG: 0.269
UGUGACCCUGGUGUGACUAAGCAUCAGGGGUGGGGUUGUAUAAGUUCAAAAGUGUGAAAUGUCUGAAGAUCAUAUUUUUUAUACAGGUAUUUCAAUUAAAUGUUUUGGUA: 0.948
UCUUGCCCCUCUGUAAAUCAAGCCAACUGUGACCAUCCAAUGUGCCAUCUUACAGGGAAAAGUUAUAACCACUAUUCCCCUAUAACAUAAUGCUAAUGAUUGUACUUAGU: 0.266
CUUGCCUCAUAAUAGAUGUGGUGACUCUCCCGGUAGACCCUAGCAAGGGUCCUCCAUGGUGGUGAGGGACUCAGGAGAAUUGUAGGGAUUGGGGGACCCUGCCUGCCUGG: 1.4
ACCUGGACUCCAGAAUUCACCCUCUCCCCUGCAGUCUGGGUUCCCAGACUGAGUCCUCUCCCCAAAUCAGGGCUCUAGACCCGAGCCCUCCAAACCUGGACUCUGGGACU: 0.344
CAACAGUCAAAGCAAUUAGAGACCAUACCUAAUAUUGUUUAAAUUCUAGAUGUAGGCUAACAAUGAAAAGUAUUUGCCAAACUGAAUAAAACUGUCAUGGUUACCUUGAA: 0.361
AAUCGCCCAACACUCCUGCACAUCAGCAGCACCAGGCCCGGGAGUGCCACGAGUGUUGAACCUCAUCCCUUCCUGUGUCCUGGGCUGAGUGACCAGGUCAGUGGCCCUGC: 0.317
AGAAACACUGCCUUUUUAUUUAUAUGUAUUGUUUUCUAUGGCACUAGGGAAAAACAUAUCUGUUCCAAGAAAAUAAACUAGUUCUCAGAGCCUUGAUUUUCCUGGUCAGG: 0.931
GUCCAUCACCAGGCCAGCUUCUCCUCAGCCCUCUGUUCUUGAAGGGGUGUGCUGGGGCAAGCAUCCUGAGACUCCUGUCUCCUGCAGAGGCCCUCCUUCCUGAAGACAGU: 0.261
UUCUUCUGCCUUUAAAAUGCCACCCGUGUAUUCAAACCAUGGCCACUUGAUACUUAUGUAGAAUCCAUCGUGGGCUGAUGCAAGCCCUUUAUUUAGGCUUAGUGUUGUGG: 0.883
GUCAUGUGGAAAUGGAAGUAGCCUCUUUUUGUUCUGAAAUUGAGUUUAUUCAAAGUGUAAAAGCACAUACUGCAUUUUCUGCUGAAAGAUCAUUAUGUUUAACAGGCACU: 0.953

Block 6 — target: UBE2R2 UBC core domain (UniProt Q712K3); technique: yeast two-hybrid; sample: yeast; setting: mostly zero background; baseline: not given; reading: higher = stronger interaction; endpoint: lacZ reporter activity
Chain of UniProt Q712K3 (whole entry, looked up): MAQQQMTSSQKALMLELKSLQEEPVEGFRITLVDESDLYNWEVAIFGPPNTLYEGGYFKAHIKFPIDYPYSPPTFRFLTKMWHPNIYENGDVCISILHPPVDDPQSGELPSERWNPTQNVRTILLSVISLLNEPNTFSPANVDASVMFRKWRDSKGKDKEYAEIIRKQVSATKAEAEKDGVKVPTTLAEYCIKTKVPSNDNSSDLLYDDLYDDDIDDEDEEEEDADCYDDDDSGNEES
B1: DZIP3 RING domain (UniProt Q86Y13); chain PDEEEEEEEPCVICHENLSPENLSVLPCAHKFHAQCIRPWLMQQGTCPTCRLHVLLPEEFP
B2: RNF121 RING domain (UniProt Q9H920); chain MPTKHLSDSVCAVCGQQIFVDVSEEGIIENTYRLSCNHVFHEFCIRGWCIVGKKQTCPYCKEKVDLKRMFS
B3: UBOX5 RING domain (UniProt O94941); chain EQPGSILGPECASCKRVFSPYFKKEPVYQLPCGHLLCRPCLGEKQRSLPMTCTACQRPVASQDVLR
B4: MAP3K1 RING domain (UniProt Q13233); chain NSIKDEEEQMCPICLLGMLDEESLTVCEDGCRNKLHHHCMSIWAEECRRNREPLICPLCRSKWRSHDFYS
B5: SYTL4 RING domain (UniProt Q96C24); chain RGSQHYSDRTCARCQESLGRLSPKTNTCRGCNHLVCRDCRIQESNGTWRCKVCAKEIELKKAT
B6: MDM4 RING domain (UniProt O15151); chain MEDCQNLLKPCSLCEKRPRDGNIIHGRTGHLVTCFHCARRLKKAGASCPICKKEIQLVIKVF
B1 (DZIP3 RING domain): 0
PEDRESLKSACVVCLSSFKSCVFLECGHVCSCTECYRALPEPKKCPICRQAITRVIPLY (MUL1 RING domain (UniProt Q969V5)): 0
KLRKLKEAMLCMVCCEEEINSTFCPCGHTVCCESCAAQLQSCPVCRSRVEHVQHVY (MYLIP RING domain (UniProt Q8WY64)): 0
B2 (RNF121 RING domain): 0
B3 (UBOX5 RING domain): 0
NLSELTPYILCSICKGYLIDATTITECLHTFCKSCIVRHFYYSNRCPKCNIVVHQTQPLY (PCGF6 RING domain (UniProt Q9BYE7)): 0
B4 (MAP3K1 RING domain): 0
AMYLQENGIDCPKCKFSYALARGGCMHFHCTQCRHQFCSGCYNAFYAKNKC (RNF31 RING domain (UniProt Q96EP0)): 0
B5 (SYTL4 RING domain): 0
B6 (MDM4 RING domain): 0
FDGDVDPDLKCALCHKVLEDPLTTPCGHVFCAGCVLPWVVQEGSCPARCRGRLSAKELN (PDZRN3 RING domain (UniProt Q9UPQ7)): 0

Some of these lines once more (block 1):
R6C: 3.3
V11L: 2.5
A3Y: 0.13
G9H: 2.35
